# Experimental data gathered from unrelated publications.
# Every numbered part comes from another study and shows a few of its results, in no order.

# Series 1
# Target: Histone acetyltransferase KAT6A, both winged helices, GST fusion (KAT6A, Homo sapiens, UniProt Q92794, residues 1-181)
# Technique: protein binding microarray
# Molecule type: double-stranded DNA, one strand shown
# Medium: in vitro
# Tested at: not given
# Notes: 8-mer, flanks averaged, mean of 2 arrays, mostly near background
# Reference: not given
# Reading: higher = stronger binding
# Target sequence (chain): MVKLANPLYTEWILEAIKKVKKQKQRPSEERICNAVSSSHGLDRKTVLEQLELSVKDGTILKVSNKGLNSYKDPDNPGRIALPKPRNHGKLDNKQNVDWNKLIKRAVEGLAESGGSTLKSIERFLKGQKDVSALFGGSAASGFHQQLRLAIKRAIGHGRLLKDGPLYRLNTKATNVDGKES
Strand,E-score
GCCGACCC,0.257
CATTTCTC,-0.015
CAGCAATG,-0.181
AACGTCCA,-0.0209
GGGGCTAA,-0.237

# Series 2
# Target: Sal-like protein 4, full length isoform A (SALL4, Homo sapiens, UniProt Q9UJQ4, residues 1-1053)
# UniProt Q9UJQ4, sequence (whole entry, looked up): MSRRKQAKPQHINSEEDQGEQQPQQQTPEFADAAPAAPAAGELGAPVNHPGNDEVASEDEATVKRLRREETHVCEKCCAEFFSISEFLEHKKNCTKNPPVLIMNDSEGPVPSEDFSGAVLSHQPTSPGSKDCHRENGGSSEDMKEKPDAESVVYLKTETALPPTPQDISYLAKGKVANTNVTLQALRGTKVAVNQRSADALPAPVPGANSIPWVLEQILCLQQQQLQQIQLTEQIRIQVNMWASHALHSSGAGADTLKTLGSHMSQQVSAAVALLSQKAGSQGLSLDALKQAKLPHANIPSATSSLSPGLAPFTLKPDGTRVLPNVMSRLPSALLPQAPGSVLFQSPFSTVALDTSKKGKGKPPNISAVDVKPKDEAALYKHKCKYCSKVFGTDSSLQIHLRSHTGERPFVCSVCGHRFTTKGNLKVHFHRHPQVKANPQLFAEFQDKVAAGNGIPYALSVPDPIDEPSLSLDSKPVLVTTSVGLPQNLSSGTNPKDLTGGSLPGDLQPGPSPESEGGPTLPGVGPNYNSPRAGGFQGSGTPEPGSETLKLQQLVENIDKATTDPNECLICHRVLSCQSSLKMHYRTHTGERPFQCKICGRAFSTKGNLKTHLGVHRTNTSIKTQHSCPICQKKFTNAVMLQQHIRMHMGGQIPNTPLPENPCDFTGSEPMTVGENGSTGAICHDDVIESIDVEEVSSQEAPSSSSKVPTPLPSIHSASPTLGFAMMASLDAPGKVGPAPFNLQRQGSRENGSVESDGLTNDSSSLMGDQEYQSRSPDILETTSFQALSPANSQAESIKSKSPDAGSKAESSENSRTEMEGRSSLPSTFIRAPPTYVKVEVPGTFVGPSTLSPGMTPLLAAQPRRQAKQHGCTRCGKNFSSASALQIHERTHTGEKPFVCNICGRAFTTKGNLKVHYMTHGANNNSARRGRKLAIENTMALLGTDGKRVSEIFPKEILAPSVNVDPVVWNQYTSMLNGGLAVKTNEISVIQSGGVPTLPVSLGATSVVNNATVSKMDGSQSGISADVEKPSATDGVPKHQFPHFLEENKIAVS
# Technique: universal PBM
# Molecule type: double-stranded DNA, one strand shown
# Medium: in vitro
# Tested at: 600 nM
# Notes: 8-mer, flanks averaged, mean of replicates
# Reading: higher = stronger binding
Strand,E-score
AGGTAAGA,0.0748
GACCCTAA,-0.127
GCTAATGA,0.0497
AACGTGTC,-0.0627

# Series 3
# Target: Phosphate system positive regulatory protein PHO4, full length, GST-tagged (PHO4, Saccharomyces cerevisiae, UniProt P07270, residues 1-312)
# Technique: competition protein-binding microarray
# Molecule type: double-stranded DNA, one strand shown
# Medium: in vitro
# Tested at: 2 µM
# Notes: whole 60-bp probe, lowest competitor level
# Together with: Cbf1 competitor, 0.05 µM
# Reading: higher = stronger binding
# Construct (chain): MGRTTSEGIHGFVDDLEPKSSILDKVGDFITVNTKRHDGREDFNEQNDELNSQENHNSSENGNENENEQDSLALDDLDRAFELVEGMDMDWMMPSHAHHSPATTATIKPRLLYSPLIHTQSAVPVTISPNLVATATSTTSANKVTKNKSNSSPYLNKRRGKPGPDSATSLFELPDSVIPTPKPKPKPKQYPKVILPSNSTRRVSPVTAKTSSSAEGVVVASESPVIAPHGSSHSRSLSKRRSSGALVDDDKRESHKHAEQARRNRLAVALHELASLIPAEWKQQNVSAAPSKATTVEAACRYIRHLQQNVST
Strand,fluorescence intensity
AAAATCACTTTCCATCACGTGCCGAGGGTGGAACGCGTCTTGATTCGCTTGACGCTGCTG,19400 a.u.
AAAGCGGTAATTTGTGGGGTGGGTGCAGATATCTATGTCTTGATTCGCTTGACGCTGCTG,4810 a.u.
GAATTTGAGGAGTTCCACGTGCCAGAAAGGATTATTGTCTTGATTCGCTTGACGCTGCTG,15300 a.u.

# Mixed results
Substance,target,assay,test system,setting,scale,endpoint,value
"PhoQ, residues 284 288 289 292 302 303 GANMMA","PhoP, residues 12 14 15 18 19 GQAIL (Escherichia coli, UniProt P23836)","Sort-seq, item: YFP reporter",E. coli,"PhoQ-PhoP variant library, together with: 10 µM Mg2+","reference: high Mg2+ state, higher = stronger signaling",fold induction,1.59

# For quick reference, copied from above (series 2):
Strand,E-score
GACCCTAA,-0.127
